Published values gathered from unrelated publications.
Several values in a cell are separate wells, animals, samples, runs or records. ± gives the spread as reported.
Organism: HIV-1

[Cl-].[Cl-].[Cl-].[Cl-].[O]=[V+2].[O]=[V+2].c1cc(CN2CCCNCCNCCCNCC2)ccc1CN1CCCNCCNCCCNCC1
IC50 (viral cytopathic effect; MT4 cells, IIIB): 119 nM and 117 nM

COc1cc(/C=C/C(=O)C(CCOC(=O)CCC(NC(=O)c2ccc(NCc3cnc4nc(N)[nH]c(=O)c4n3)cc2)C(=O)O)C(=O)/C=C/c2ccc(O)c(OC)c2)ccc1O (centres unmarked)
IC50 (viral replication, MTT; MT-4, IIIB): > 63 nM

C=C(C)[C@]12C[C@@H](COC(=O)c3ccccc3)[C@@]34OC5(O[C@@H]1[C@@H]3[C@@H]1O[C@]1(COC(=O)c1ccccc1)[C@@H](O)[C@@]1(O)[C@H]4[C@H]([C@H](C)[C@@H]1OC(=O)c1ccccc1)[C@H](C)CCCCCC[C@H]5OC(=O)c1ccccc1)O2
IC50 (viral replication, inhibitor; MT-4 cells, NL4-3 NanoLuc-sec; 72 h): > 1 nM

Cc1cn([C@H]2C[C@H](N=[N+]=[N-])[C@@H](CO)O2)c(=O)[nH]c1=O
IC50 (virus neutralization; DU422): 183 ± 1.9 nM

Nc1nc(NC2CC2)c2ncn([C@H]3C=C[C@@H](CO)C3)c2n1
IC50 (viral replication, MTT; MT4): 580 ± 30 nM

CC(C)CN(C[C@@H](O)[C@H](Cc1ccccc1)NC(=O)O[C@H]1CO[C@H]2OCC[C@H]21)S(=O)(=O)c1ccc(N)cc1
IC50 (viral replication; highly PI-resistant variants): 6.1 to 275 nM

COc1cc(/C=C/C(=O)CC(=O)/C=C/c2ccc(OC(=O)[C@H](Cc3ccccc3)NC(=O)[C@@H](N)Cc3c[nH]c4ccccc34)c(OC)c2)ccc1OC(=O)[C@H](Cc1ccccc1)NC(=O)[C@@H](N)Cc1c[nH]c2ccccc12
IC50 (viral replication, MTT; MT-4, IIIB): > 94 nM

Cc1nc([C@@H](CN)NC(=O)c2ccc(-c3ccc(F)c(F)c3)[nH]2)sc1CO (single isomer, unassigned)
IC50 (viral infection; TZM-bl, recombinant subtype A Env pseudoviruses; mean over panel): 4330 ± 390 nM

C=C1[C@H](CO)[C@@H](O)C[C@@H]1n1cnc2c(=O)[nH]c(N)nc21
IC50 (viral replication, MTT; MT4): ~1000 nM

CC[C@H](C)[C@H](N)C(=O)N[C@H](C(=O)N[C@@H](Cc1ccccc1)C(=O)N[C@@]1(C)CCC/C=C\CCC[C@@](C)(C(=O)N[C@@H](Cc2ccc(O)cc2)C(=O)N[C@@H](Cc2ccc(O)cc2)C(=O)NCC(=O)N[C@@H](CCCCN)C(=O)N[C@@H](CCCCN)C(=O)N[C@@H](CCCCN)C(N)=O)NC(=O)[C@H](CC(C)C)NC(=O)[C@H](CC(C)C)NC(=O)[C@H](CC(=O)O)NC1=O)[C@@H](C)O
IC50: > 100000 nM

C#C[C@]1(CO)O[C@@H](n2cnc3c(N)nc(F)nc32)C[C@@H]1O
IC50 (viral replication, MTT; MT4): 0.3 ± 0.1 nM

O=c1cc(-c2ccc(O)c(O)c2)oc2cc(O)cc(O)c12
IC50 (viral replication; TZM-bl, NL4-3, CXCR4-tropic; 48 h): 1320 nM

N#C[C@]1(CO)O[C@@H](n2cnc3c(N)nc(N)nc32)C[C@@H]1O
IC50 (viral replication, MTT; MT4): 0.4 ± 0.1 nM

CC(=O)N[C@@H](CC(C)C)C(=O)N[C@@H](CS)C(=O)N[C@@H](CC(=O)O)C(=O)N[C@@H](CS)C(=O)N1CCC[C@H]1C(=O)N[C@@H](CC(N)=O)C(=O)NCC(=O)N1CCC[C@H]1C(=O)N[C@@H](Cc1c[nH]c2ccccc12)C(=O)N[C@H](C(=O)N[C@@H](Cc1c[nH]c2ccccc12)C(=O)N[C@@H](C)C(=O)N1CCC[C@H]1C(=O)N[C@@H](C)C(=O)N[C@@H](Cc1ccccc1)C(=O)N[C@@H](CS)C(=O)N[C@@H](CCC(N)=O)C(=O)N[C@@H](C)C(=O)N[C@H](C(=O)NCC(=O)O)C(C)C)C(C)C
IC50 (viral replication, inhibitor, SEAP reporter; CEMx174 SEAP reporter, NL4-3; 3 days): 27500 ± 14200 nM

CC(C)OC(=O)OCOP(=O)(CO[C@H](C)Cn1cnc2c(N)ncnc21)OCOC(=O)OC(C)C
IC50 (viral cytopathicity; MT4 cells, wild type): 203 nM

Cc1ccc(-c2ccc3c(c2)C=C(C(=O)Nc2ccc(C[N+](C)(C)C4CCOCC4)cc2)CCC3)cc1
IC50 (viral replication; PBMC, Ba-L, R5): 28 ± 32 nM

CCCCOn1cc(CC(=O)Nc2ccncc2Cl)c2ccccc21
IC50 (viral replication; HEK293T): 40 ± 10 nM

N#C[C@]1(CO)O[C@@H](n2cnc3c(=O)[nH]c(N)nc32)C[C@@H]1O
IC50 (viral replication, MTT; MT4): 0.4 ± 0.1 nM

NC[C@H](NC(=O)c1ccc(-c2cc(F)c(Cl)c(F)c2)[nH]1)c1ncc(CO)s1 (single isomer, unassigned)
IC50 (viral infection; TZM-bl, Env-pseudovirus panel; range over panel): 270 to 890 nM

CC[C@H](C)[C@H](NC(=O)[C@H](CC(C)C)NC(=O)[C@H](CCC(=O)O)NC(=O)[C@H](CCC(=O)O)NC(=O)[C@@H](NC(=O)[C@H](CCCCN)NC(=O)[C@H](CCCCN)NC(=O)[C@@H](NC(=O)[C@H](Cc1ccc(O)cc1)NC(=O)[C@H](CCC(=O)O)NC(=O)[C@H](CCC(=O)O)NC(=O)[C@@H](NC(=O)[C@H](CCCCN)NC(=O)[C@H](CCCCN)NC(=O)[C@H](CC(=O)O)NC(=O)[C@H](Cc1c[nH]c2ccccc12)NC(=O)[C@H](CCC(=O)O)NC(=O)[C@H](CCC(=O)O)NC(=O)[C@H](Cc1c[nH]c2ccccc12)NC(=O)[C@@H](NC(=O)[C@@H](N)CCSC)[C@@H](C)O)[C@@H](C)CC)[C@@H](C)O)[C@@H](C)CC)C(=O)N[C@@H](CCCCN)C(=O)N[C@@H](CCCCN)C(=O)N[C@@H](CO)C(=O)O
IC50 (virus neutralization; MN): 102 ± 29.9 nM

Cc1c(O)cccc1C(=O)N[C@@H](CSc1ccccc1)[C@H](O)CN1C[C@H]2CCCC[C@H]2C[C@H]1C(=O)NC(C)(C)C
IC50 (viral replication; PBMC, Ba-L, R5): 12 ± 8 nM

Cc1cn([C@@H]2C[C@@H](O)[C@H](CO)O2)c(=O)[nH]c1=O
IC50 (viral replication, MTT; MT4): > 100000 nM

Cc1ccnc2c1NC(=O)c1cccnc1N2C1CC1
IC50 (viral replication; HEK293T): 20 ± 3 nM

Cc1cn([C@H]2C[C@H](N=[N+]=[N-])[C@@H](CO)O2)c(=O)[nH]c1=O
IC50 (viral replication, MTT; MT4): 30 ± 10 nM

Cc1cn([C@H]2C[C@H](N=[N+]=[N-])[C@@H](CO)O2)c(=O)[nH]c1=O
IC50 (viral cytopathicity; MT4 cells, wild type): 37 nM

CC(=O)N[C@@H](CC(C)C)C(=O)N[C@@H](CS)C(=O)N[C@@H](CC(=O)O)C(=O)N[C@@H](CS)C(=O)N1CCC[C@H]1C(=O)N[C@@H](CC(N)=O)C(=O)NCC(=O)N1CCC[C@H]1C(=O)N[C@@H](Cc1c[nH]c2ccccc12)C(=O)N[C@H](C(=O)N[C@@H](Cc1c[nH]c2ccccc12)C(=O)N[C@H](C(=O)N1CCC[C@H]1C(=O)N[C@@H](C)C(=O)N[C@@H](Cc1ccccc1)C(=O)N[C@@H](CS)C(=O)N[C@@H](CCC(N)=O)C(=O)N[C@@H](C)C(=O)N[C@H](C(=O)N[C@@H](CC(=O)O)C(N)=O)C(C)C)C(C)C)C(C)C
IC50 (viral replication, inhibitor, SEAP reporter; CEMx174 SEAP reporter, NL4-3; 3 days): 4610 ± 1060 nM

Cc1nc(C(NC(=O)c2ccc(-c3ccc(Cl)cc3)[nH]2)C2CCCCN2)sc1CO (mixture of isomers)
IC50 (Env pseudovirus infection; TZM-bl, subtype B SC422661.8): 600 ± 100 nM

Nc1ccn([C@@H]2CS[C@H](CO)O2)c(=O)n1
IC50 (viral replication, MTT; MT4): 290 ± 80 nM

CC[C@H](C)[C@H](N)C(=O)N[C@@H](CC(C)C)C(=O)N[C@@H](CCCNC(=N)N)C(=O)N[C@@H](Cc1c[nH]c2ccccc12)C(=O)N[C@@H](CO)C(=O)N[C@@H](CCCNC(=N)N)C(=O)N[C@@H](CCCCN)C(=O)N[C@@H](CC(C)C)C(=O)N1CCC[C@H]1C(=O)N[C@@H](CS)C(=O)N[C@H](C(=O)N[C@@H](CO)C(=O)O)C(C)C
IC50 (viral replication, inhibitor, β-galactosidase reporter; TZM-bl, NL4-3, CXCR4-tropic; 3 days): 7 nM

For quick reference, copied from above:
Cc1cn([C@H]2C[C@H](N=[N+]=[N-])[C@@H](CO)O2)c(=O)[nH]c1=O
IC50 (viral replication, MTT; MT4): 30 ± 10 nM

Cc1cn([C@H]2C[C@H](N=[N+]=[N-])[C@@H](CO)O2)c(=O)[nH]c1=O
IC50 (virus neutralization; DU422): 183 ± 1.9 nM

C=C1[C@H](CO)[C@@H](O)C[C@@H]1n1cnc2c(=O)[nH]c(N)nc21
IC50 (viral replication, MTT; MT4): ~1000 nM

[Cl-].[Cl-].[Cl-].[Cl-].[O]=[V+2].[O]=[V+2].c1cc(CN2CCCNCCNCCCNCC2)ccc1CN1CCCNCCNCCCNCC1
IC50 (viral cytopathic effect; MT4 cells, IIIB): 119 nM and 117 nM
